Assay results from different studies.
Lines come from different studies, so protocols differ.
Effect on: cell growth or viability

| SMILES | cell line | assay | setting | viability |
| --- | --- | --- | --- | --- |
| O=C(Nc1ccc(Oc2nnc(-c3ccc(Cl)cc3)c3ccccc23)cc1)c1ccccc1 | MCF7 | MTT | 2.5 µM, 24 h | 6.6% |
| COc1ccc(NC(=O)c2c(Nc3ccccc3)sc(C(=O)NN=Cc3ccccc3)c2NC(C)=O)cc1 | HCT-116 | SRB | 100 µM, 48 h | 58.4% |
| COc1ccc(NC(=O)Nc2cccc(-c3cn(Cc4ccc(Br)cc4)nn3)c2)cc1 | Huh-7 | CCK-8 | 50 µM, 48 h | 52.8% |
| COc1ccc(C=NNC(=O)c2sc(Nc3ccccc3)c(C(=O)Nc3ccc(OC)cc3)c2NC(C)=O)cc1 | HCT-116 | SRB | 1 nM, 48 h | 99.4% |
| O=C(Nc1ccc(Cl)cc1)Nc1ccc(Oc2nc3ccccc3n3cnnc23)cc1 | MDA-MB-231 | MTT | 1.56 µM, 24 h | 100% |
| COc1ccc(NC(=O)c2c(Nc3ccccc3)sc(C(=O)NN=Cc3ccc(Br)cc3)c2NC(C)=O)cc1 | HCT-116 | SRB | 0.1 µM, 48 h | 85.1% |
| CC(=NNC(=O)c1ccccc1)c1ccc(Nc2nnc(-c3ccc(Cl)cc3)c3ccccc23)cc1 | HepG2 | MTT | 2.5 µM, 24 h | 4.21% |
| Cc1c(Cc2ccccc2)c(=O)oc2c(C)c(OCC(=O)NN=Cc3ccco3)ccc12 | MDA-MB-231 | MTT | 125 µg/mL | 4.73% |
| CC(C)(C)c1nc(-c2cccc(NS(=O)(=O)c3c(F)cccc3F)c2F)c(-c2ccnc(N)n2)s1 | SK-MEL-23 | MTT | 6.3 µM, 48 h | 52.8% |
| CC(=NNC(=S)Nc1ccccc1)c1ccc(Nc2nnc(-c3ccc(Cl)cc3)c3ccccc23)cc1 | HepG2 | MTT | 1.25 µM, 24 h | 50% |
| COc1ccc(NC(=O)Nc2ccc(-c3cn(Cc4ccc(Br)cc4)nn3)cc2)cc1 | Huh-7 | CCK-8 | 50 µM, 48 h | 85.1% |
| CCc1c(C)c2ccc(OCC(=O)NNC(=S)Nc3ccccc3)c(C)c2oc1=O | MDA-MB-231 | MTT | 250 µg/mL | 6.71% |
| Cc1ccc(C(CS(=O)(=O)c2ccccc2)=NNC2=NC(=O)C(=NNc3ccc([N+](=O)[O-])cc3)S2)cc1 | SK-MEL-23 | MTT | 100 µM, 48 h | 40.9% |
| S=C(Nc1ccccc1)Nc1ccc(Oc2nnc(-c3ccc(Cl)cc3)c3ccccc23)cc1 | HepG2 | MTT | 0.312 µM, 24 h | 98.7% |
| COc1ccc(NCC(=O)Nc2c(C#N)sc(Nc3ccccc3)c2C(=O)Nc2ccc(OC)cc2)cc1 | HCT-116 | SRB | 100 µM, 48 h | 63.3% |
| C=CCOc1ccc2c(C)c(CC)c(=O)oc2c1C | MDA-MB-231 | MTT | 62.5 µg/mL | 99.4% |
| Cc1ccc(C(CS(=O)(=O)c2ccccc2)=NN=C2N=C(c3ccc(Br)cc3)CS2)cc1 | SK-MEL-23 | MTT | 0.4 µM, 48 h | 83.6% |
| CC(=NNC(=O)c1ccc(N)cc1)c1ccc(Nc2nnc(-c3ccc(Cl)cc3)c3ccccc23)cc1 | HepG2 | MTT | 10 µM, 24 h | 8.37% |
| COc1ccc(NC(=O)NCc2cn(Cc3ccc(C)cc3)nn2)cc1 | Huh-7 | CCK-8 | 50 µM, 48 h | 97.3% |
| CC(=NNC(=O)c1ccccc1Cl)c1ccc(Nc2nnc(-c3ccc(Cl)cc3)c3ccccc23)cc1 | HepG2 | MTT | 10 µM, 24 h | 3.2% |

| SMILES | cell line | assay | setting | viability |
| --- | --- | --- | --- | --- |
| CCCOc1ccc2c(C)c(CC)c(=O)oc2c1C | MDA-MB-231 | MTT | 1000 µg/mL | 2.9% |
| CC(=NNC(=O)c1ccncc1)c1ccc(Nc2nnc(-c3ccc(Cl)cc3)c3ccccc23)cc1 | HepG2 | MTT | 5 µM, 24 h | 4.5% |
| COc1ccc(NC(=O)c2c(Nc3ccccc3)sc(C(=O)NN=Cc3ccc(OC)c(O)c3)c2NC(C)=O)cc1 | HCT-116 | SRB | 1 nM, 48 h | 100% |
| C=CCNC(=S)NNC(=O)COc1ccc2c(C)c(CC)c(=O)oc2c1C | MDA-MB-231 | MTT | 62.5 µg/mL | 89.2% |
| Cc1ccc(C(CS(=O)(=O)c2ccccc2)=NNc2nc(-c3ccc(OCCCCOc4ccc(-c5csc(NN=C(CS(=O)(=O)c6ccccc6)c6ccc(C)cc6)n5)cc4)cc3)cs2)cc1 | SK-MEL-23 | MTT | 25 µM, 48 h | 48% |
| COc1ccc(NC(=O)NCc2cn(Cc3ccc(Cl)cc3)nn2)cc1 | Huh-7 | CCK-8 | 50 µM, 48 h | 93.7% |
| CNC(=O)c1cc(Oc2ccc(NC(=O)Nc3ccc(Cl)c(C(F)(F)F)c3)cc2)ccn1 | MDA-MB-231 | MTT | 6.25 µM, 24 h | 55.9% |
| CC(=O)Nc1ccc(Oc2nnc(-c3ccc(Cl)cc3)c3ccccc23)cc1 | HepG2 | MTT | 0.625 µM, 24 h | 11.7% |
| COc1ccc(NC(=O)Nc2ccc(-c3cn(Cc4ccc(Cl)cc4)nn3)cc2)cc1 | Huh-7 | CCK-8 | 50 µM, 72 h | 90.9% |
| COc1ccc(NC(=O)c2c(Nc3ccccc3)sc(C(=O)NN=Cc3cc(OC)c(OC)c(OC)c3)c2NC(C)=O)cc1 | HCT-116 | SRB | 1 nM, 48 h | 99% |
| Cc1c(Cc2ccccc2)c(=O)oc2c(C)c(OCC(=O)NN=Cc3ccc(Cl)cc3)ccc12 | MDA-MB-231 | MTT | 31.25 µg/mL | 52.1% |
| Cc1ccc(C(CS(=O)(=O)c2ccccc2)=NNC2=NC(=O)C(=NNc3ccccc3)S2)cc1 | SK-MEL-23 | MTT | 100 µM, 48 h | 21.2% |
| COc1ccc(NC(=O)Nc2cccc(-c3cn(Cc4ccc(C)cc4)nn3)c2)cc1 | Huh-7 | CCK-8 | 50 µM, 48 h | 65.2% |
| NC(=S)NN=C(CS(=O)(=O)c1ccccc1)c1ccc(F)cc1 | SK-MEL-23 | MTT | 100 µM, 48 h | 32.7% |
| Cc1c(Cc2ccccc2)c(=O)oc2c(C)c(OCC(=O)NN=Cc3ccccc3)ccc12 | MDA-MB-231 | MTT | 250 µg/mL | 6.21% |
| COc1ccc(NC(=O)Nc2ccc(-c3cn(Cc4cccc(Cl)c4)nn3)cc2)cc1 | Huh-7 | CCK-8 | 50 µM, 48 h | 88.4% |
| COc1ccc(NC(=O)c2c(Nc3ccccc3)sc(C#N)c2NC(=O)CNc2ccc(O)cc2)cc1 | HCT-116 | SRB | 1 nM, 48 h | 101% |
| CC(=O)Nc1cccc(-n2c(=O)n(C3CC3)c(=O)c3c(Nc4ccc(I)cc4F)n(C)c(=O)c(C)c32)c1 | SW-620 | resazurin | 0.1 µM, 72 h | 24% |
| COc1ccc(NC(=O)c2c(Nc3ccccc3)sc(C#N)c2NC(=O)CNc2ccc(C)cc2)cc1 | HCT-116 | SRB | 1 µM, 48 h | 75.4% |
| N#CC(C(=O)Nc1cccc(C(F)(F)F)c1)=C1Sc2nc3ccc(S(=O)(=O)N4CCCC4)cc3nc2S1 | MDA-MB-231 | MTT | 12.5 µM, 24 h | 37.8% |

A few entries again:
| SMILES | cell line | assay | setting | viability |
| --- | --- | --- | --- | --- |
| CC(=NNC(=O)c1ccccc1Cl)c1ccc(Nc2nnc(-c3ccc(Cl)cc3)c3ccccc23)cc1 | HepG2 | MTT | 10 µM, 24 h | 3.2% |
| CCCOc1ccc2c(C)c(CC)c(=O)oc2c1C | MDA-MB-231 | MTT | 1000 µg/mL | 2.9% |
| CC(=NNC(=O)c1ccncc1)c1ccc(Nc2nnc(-c3ccc(Cl)cc3)c3ccccc23)cc1 | HepG2 | MTT | 5 µM, 24 h | 4.5% |
| COc1ccc(NC(=O)c2c(Nc3ccccc3)sc(C(=O)NN=Cc3ccc(OC)c(O)c3)c2NC(C)=O)cc1 | HCT-116 | SRB | 1 nM, 48 h | 100% |
